# Measurements gathered from unrelated publications.
# Lines come from different studies, so protocols differ. ± gives the spread as reported.
Compound,assay,test system,conditions,how to read,measurement,result
N=C(N)NCCC[C@@H]1NC(=O)[C@H](CCCNC(=N)N)NC(=O)[C@@H](CCCNC(=N)N)NC(=O)[C@@H](CCCNC(=N)N)NC(=O)[C@@H](C(c2ccccc2)c2ccccc2)NC(=O)[C@H](Cc2c[nH]c3ccccc23)NC(=O)[C@@H](C(c2ccccc2)c2ccccc2)NC1=O,,bacterial membrane liposomes,"50 µg/mL, 20 min",,calcein leakage,56 to 64%
CN1CCC[C@]1(C)/C=C/S(=O)(=O)NC(=O)Nc1c2c(cc3c1CCC3)CCC2,IL-1β release,"human, whole blood ex vivo","oral, 50 mg twice daily, day 14, 336 h, multiple ascending dose, together with: LPS and ATP",,inhibition,98.5%
CC(CCC(=O)NCc1ccc(C(=O)NO)cc1)C1CCC2C3C(O)CC4CC(O)CCC4(C)C3CCC12C (centres unmarked),item: Tauro-conj,"PCK rat (Pkhd1 mutant), bile","oral gavage, dose not given, 5 months",reference: total bile acids,relative abundance,80.6%
COc1ccc(C(=O)CCc2cc(C(CCc3ccc(O)cc3OC)c3ccc(O)cc3)c(O)cc2OC)cc1 (racemic),,human blood,"30 µM, together with: A23187",,DHA level,132000 ± 38400 pg/mL
COC1CN([C@H]2CC[C@H]([C@@]3(C)Oc4c(Cl)cc(C(=O)NCc5c(SC)cc(C)[nH]c5=O)c(C)c4O3)CC2)C1,"RNA-seq, item: EXOC6B mouse homolog","mouse, HT-1376 xenograft, whole blood",dose not given,reference: vehicle,log2 fold change,0.0432
COc1cc(O)ccc1CCC(c1ccc(O)cc1)c1cc2c(c(C)c1O)OC(c1ccc(O)cc1)CC2 (mixture of isomers),,human blood,"1 µM, together with: A23187",,20-OH-LTB4 level,429 ± 187 pg/mL
CC(=O)[O-].O.O.O.O.[Mn+2].[O-]c1ccc(Br)cc1C=NCCN1CCOCC1,superoxide scavenging,,80 µM,,inhibition,11.5%
COc1ccc2cc3[n+](cc2c1OCCCOC(=O)c1cscn1)CCc1cc2c(cc1-3)OCO2,,"C57BL/6 mice, high-fat diet","oral gavage, 40 mg/kg daily, 14 weeks",reference: HFD control,plasma LDL-C reduction,62.4%

# For quick reference, copied from above:
Compound,assay,test system,conditions,how to read,measurement,result
CN1CCC[C@]1(C)/C=C/S(=O)(=O)NC(=O)Nc1c2c(cc3c1CCC3)CCC2,IL-1β release,"human, whole blood ex vivo","oral, 50 mg twice daily, day 14, 336 h, multiple ascending dose, together with: LPS and ATP",,inhibition,98.5%
